Published values from different studies.
Protocols differ between the studies behind these lines. Values joined by “and” are separate records of one study, mostly repeats; a detail may differ.
Chain of UniProt Q9UM07 (whole entry, looked up): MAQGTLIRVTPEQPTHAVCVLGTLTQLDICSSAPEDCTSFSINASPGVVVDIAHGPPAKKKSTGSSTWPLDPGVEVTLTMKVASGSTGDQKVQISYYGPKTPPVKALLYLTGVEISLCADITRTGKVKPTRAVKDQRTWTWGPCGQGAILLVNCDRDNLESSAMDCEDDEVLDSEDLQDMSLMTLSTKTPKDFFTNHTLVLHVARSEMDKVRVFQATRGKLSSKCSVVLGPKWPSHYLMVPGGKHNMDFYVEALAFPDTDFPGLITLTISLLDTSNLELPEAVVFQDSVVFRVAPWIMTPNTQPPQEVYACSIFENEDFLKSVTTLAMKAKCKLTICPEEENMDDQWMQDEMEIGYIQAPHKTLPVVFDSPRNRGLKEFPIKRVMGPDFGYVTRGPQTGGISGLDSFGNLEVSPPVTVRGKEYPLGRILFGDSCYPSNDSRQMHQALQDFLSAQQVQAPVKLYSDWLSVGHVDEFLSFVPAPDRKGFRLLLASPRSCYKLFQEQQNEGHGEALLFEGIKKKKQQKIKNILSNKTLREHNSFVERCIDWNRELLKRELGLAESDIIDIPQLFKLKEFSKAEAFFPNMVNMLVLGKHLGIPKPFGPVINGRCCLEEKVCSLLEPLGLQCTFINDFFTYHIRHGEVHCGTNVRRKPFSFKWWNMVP
Chain of UniProt P23975 (whole entry, looked up): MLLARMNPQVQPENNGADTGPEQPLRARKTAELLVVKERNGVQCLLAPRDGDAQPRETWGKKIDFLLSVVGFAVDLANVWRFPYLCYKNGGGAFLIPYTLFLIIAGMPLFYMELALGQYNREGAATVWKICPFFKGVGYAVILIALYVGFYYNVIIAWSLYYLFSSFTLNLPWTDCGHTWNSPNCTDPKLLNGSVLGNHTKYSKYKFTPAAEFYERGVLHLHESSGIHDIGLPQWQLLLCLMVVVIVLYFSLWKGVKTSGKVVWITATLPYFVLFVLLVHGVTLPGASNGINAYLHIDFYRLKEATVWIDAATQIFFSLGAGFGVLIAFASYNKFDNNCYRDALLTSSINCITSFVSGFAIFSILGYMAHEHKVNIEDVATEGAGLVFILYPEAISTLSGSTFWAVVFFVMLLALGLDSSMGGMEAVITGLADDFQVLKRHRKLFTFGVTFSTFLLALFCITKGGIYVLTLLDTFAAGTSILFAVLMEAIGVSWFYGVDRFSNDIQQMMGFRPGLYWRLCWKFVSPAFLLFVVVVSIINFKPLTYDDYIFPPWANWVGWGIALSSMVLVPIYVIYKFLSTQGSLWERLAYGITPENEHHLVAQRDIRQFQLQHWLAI
Chain of UniProt O15111 (whole entry, looked up): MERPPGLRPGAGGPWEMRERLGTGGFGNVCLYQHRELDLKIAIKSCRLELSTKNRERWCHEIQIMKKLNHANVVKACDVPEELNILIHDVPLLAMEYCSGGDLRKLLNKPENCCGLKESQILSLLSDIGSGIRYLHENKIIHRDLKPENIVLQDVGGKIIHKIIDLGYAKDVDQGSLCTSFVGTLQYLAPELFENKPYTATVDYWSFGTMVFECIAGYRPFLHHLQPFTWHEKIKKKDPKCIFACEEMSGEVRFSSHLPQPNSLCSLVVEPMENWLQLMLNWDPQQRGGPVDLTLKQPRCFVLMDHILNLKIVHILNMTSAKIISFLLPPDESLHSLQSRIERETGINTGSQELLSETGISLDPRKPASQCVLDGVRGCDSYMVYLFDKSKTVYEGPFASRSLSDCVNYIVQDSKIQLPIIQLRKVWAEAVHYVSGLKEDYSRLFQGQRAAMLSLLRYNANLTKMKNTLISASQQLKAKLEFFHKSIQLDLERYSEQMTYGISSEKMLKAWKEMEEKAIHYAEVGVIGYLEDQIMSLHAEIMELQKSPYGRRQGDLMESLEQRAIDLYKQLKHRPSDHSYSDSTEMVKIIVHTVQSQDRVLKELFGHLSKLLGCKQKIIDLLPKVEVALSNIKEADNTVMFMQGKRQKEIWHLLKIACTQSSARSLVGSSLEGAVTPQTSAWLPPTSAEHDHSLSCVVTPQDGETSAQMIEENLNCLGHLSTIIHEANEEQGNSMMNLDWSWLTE
Chain of UniProt P53779 (whole entry, looked up): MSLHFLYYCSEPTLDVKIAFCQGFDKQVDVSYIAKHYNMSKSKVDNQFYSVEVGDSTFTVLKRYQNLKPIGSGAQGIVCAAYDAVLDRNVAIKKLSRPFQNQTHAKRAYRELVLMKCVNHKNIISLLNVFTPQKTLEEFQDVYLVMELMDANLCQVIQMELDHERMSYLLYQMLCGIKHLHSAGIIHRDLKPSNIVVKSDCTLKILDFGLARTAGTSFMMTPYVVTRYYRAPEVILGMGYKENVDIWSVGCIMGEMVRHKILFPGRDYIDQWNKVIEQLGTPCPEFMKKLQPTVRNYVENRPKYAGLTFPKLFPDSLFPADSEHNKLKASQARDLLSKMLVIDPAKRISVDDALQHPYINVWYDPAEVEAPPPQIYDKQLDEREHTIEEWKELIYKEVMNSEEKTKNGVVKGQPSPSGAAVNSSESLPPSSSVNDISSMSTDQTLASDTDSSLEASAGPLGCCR
Chain of UniProt P49137 (whole entry, looked up): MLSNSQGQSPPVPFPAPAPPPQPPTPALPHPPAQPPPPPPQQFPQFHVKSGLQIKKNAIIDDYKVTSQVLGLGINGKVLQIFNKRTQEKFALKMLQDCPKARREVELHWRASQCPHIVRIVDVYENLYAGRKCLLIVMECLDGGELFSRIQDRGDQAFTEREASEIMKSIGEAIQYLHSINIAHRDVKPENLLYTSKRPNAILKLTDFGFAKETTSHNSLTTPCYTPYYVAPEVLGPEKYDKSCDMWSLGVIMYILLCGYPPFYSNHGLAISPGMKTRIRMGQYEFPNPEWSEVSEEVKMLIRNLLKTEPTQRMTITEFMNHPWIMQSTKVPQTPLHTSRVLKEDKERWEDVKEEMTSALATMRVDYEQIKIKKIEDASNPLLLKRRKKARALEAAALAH
Chain of UniProt P55210 (whole entry, looked up): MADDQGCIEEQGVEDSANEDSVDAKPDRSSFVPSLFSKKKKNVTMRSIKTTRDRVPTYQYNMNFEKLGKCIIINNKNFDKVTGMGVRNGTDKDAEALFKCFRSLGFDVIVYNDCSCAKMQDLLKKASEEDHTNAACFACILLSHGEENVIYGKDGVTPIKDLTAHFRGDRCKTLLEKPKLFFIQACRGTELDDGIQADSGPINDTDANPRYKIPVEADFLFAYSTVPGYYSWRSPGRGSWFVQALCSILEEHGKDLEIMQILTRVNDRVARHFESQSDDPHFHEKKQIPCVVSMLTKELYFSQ
Chain of UniProt P54753 (whole entry, looked up): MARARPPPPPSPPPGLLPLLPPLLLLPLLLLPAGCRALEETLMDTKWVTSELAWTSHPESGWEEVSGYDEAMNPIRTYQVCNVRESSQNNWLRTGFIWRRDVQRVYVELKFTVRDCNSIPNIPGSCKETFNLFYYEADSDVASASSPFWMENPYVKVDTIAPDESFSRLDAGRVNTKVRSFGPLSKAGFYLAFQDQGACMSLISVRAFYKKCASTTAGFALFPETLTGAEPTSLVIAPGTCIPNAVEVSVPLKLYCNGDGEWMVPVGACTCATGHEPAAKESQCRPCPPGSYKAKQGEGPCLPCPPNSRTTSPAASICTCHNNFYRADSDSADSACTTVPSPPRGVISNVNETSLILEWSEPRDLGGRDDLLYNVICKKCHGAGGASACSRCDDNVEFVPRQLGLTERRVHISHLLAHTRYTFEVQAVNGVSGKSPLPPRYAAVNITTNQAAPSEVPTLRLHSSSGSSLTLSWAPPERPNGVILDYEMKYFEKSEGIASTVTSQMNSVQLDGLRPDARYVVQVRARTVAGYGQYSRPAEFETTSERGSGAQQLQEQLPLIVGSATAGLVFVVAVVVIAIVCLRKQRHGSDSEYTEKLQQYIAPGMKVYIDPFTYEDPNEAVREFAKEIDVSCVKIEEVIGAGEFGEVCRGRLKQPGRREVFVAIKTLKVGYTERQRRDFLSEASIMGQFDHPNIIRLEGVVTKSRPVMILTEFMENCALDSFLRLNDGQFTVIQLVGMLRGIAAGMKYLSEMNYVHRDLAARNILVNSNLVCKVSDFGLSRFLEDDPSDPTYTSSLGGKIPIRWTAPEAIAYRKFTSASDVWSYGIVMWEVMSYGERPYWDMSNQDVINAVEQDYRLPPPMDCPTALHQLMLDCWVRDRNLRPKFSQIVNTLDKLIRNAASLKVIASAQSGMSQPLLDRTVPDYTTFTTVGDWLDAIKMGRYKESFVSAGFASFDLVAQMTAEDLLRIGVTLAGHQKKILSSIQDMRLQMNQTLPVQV

SMILES | target | assay | conditions | how to read | quantity | value
Nc1ccc(/C=C/C(=O)N2CCc3c(oc4c(-c5ccc(F)cc5)cc(-c5ccc(C(=O)N6CCC(F)(F)CC6)cn5)cc34)C2)cn1 | MAPKAPK2 (Homo sapiens, UniProt P49137) | binding, competition with immobilised ligand | 1 µM |  | remaining binding | 95%
CS(C)(=O)=Nc1ccc(-c2ccc(-c3nc4cc(O[C@@H]5CO[C@H]6[C@@H]5OC[C@H]6O)[nH]c4cc3F)cc2)cc1 | MAPK10 (Homo sapiens, UniProt P53779) | enzyme activity, inhibitor | 10 µM |  | inhibition | 12%
CC(C)CC(C(=O)N1CC2(CC1C#N)C(=O)Nc1ccccc12)N(C)C(=O)c1cc2c(F)cc(F)c(F)c2[nH]1 (centres unmarked) | Caspase-7 (CASP7, Homo sapiens, UniProt P55210) |  |  |  | Hill slope | -1.17
O=C1NC(=O)c2c1c1cc(F)c[n+]3c1c1c2c2cc(O)ccc2[n]1[Ru-4]312([N]=C=S)[S+]3CC[S+]1CC[S+]2CC3 (centres unmarked) | EPHB3 (Homo sapiens, UniProt P54753) | enzyme activity | 100 nM, human enzyme, with: 10 µM ATP | relative to: untreated | remaining activity | 117%
N[C@H](C(=O)N1CCCC1)C1CCN(c2nccc3c(-c4ncc(Cl)cc4Cl)cccc23)CC1 | PADI4 (Homo sapiens, UniProt Q9UM07) | thermal shift | 9.494 µM |  | melting temperature | 64.5 °C and 65 °C
CN(C)[C@H]1C[C@@]23CC[C@@]4(O2)C(=CC[C@]2(C)[C@@H](c5ccc6ccncc6c5)CC[C@H]24)C=C3[C@@H](O)[C@@H]1O | CHUK (Homo sapiens, UniProt O15111) | ATP probe labelling, inhibitor, KiNativ profiling | 1 µM |  | inhibition | 11.5%
CC(C)[C@H]1NC(=O)C[C@H]2/C=C/CCSSC[C@@H](NC1=O)C(=O)N[C@H](Cc1cccc3ccccc13)C(=O)NCC(=O)O2 | DYRK1A (Homo sapiens, UniProt Q13627) | enzyme activity, inhibitor | 10 µM |  | inhibition | 1.5%
Cc1sc2c(c1C)C(c1ccc(Cl)cc1)=NC(CC(=O)OC(C)(C)C)c1nnc(C)n1-2 (centres unmarked) | SLC6A2 (Homo sapiens, UniProt P23975) | ligand displacement, radioligand | 1 µM |  | inhibition | -10%

A few entries again:
SMILES | target | assay | conditions | how to read | quantity | value
Cc1sc2c(c1C)C(c1ccc(Cl)cc1)=NC(CC(=O)OC(C)(C)C)c1nnc(C)n1-2 (centres unmarked) | SLC6A2 (Homo sapiens, UniProt P23975) | ligand displacement, radioligand | 1 µM |  | inhibition | -10%
